Measured values from different studies.
Parts stem from different laboratories: compare values within a part only.
Sequence of UniProt P55265 (595-700, looked up): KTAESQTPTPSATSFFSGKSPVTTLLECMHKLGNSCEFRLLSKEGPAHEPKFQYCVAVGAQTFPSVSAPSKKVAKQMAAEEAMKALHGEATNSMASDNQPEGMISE
Sequence of UniProt P28566 (whole entry, looked up): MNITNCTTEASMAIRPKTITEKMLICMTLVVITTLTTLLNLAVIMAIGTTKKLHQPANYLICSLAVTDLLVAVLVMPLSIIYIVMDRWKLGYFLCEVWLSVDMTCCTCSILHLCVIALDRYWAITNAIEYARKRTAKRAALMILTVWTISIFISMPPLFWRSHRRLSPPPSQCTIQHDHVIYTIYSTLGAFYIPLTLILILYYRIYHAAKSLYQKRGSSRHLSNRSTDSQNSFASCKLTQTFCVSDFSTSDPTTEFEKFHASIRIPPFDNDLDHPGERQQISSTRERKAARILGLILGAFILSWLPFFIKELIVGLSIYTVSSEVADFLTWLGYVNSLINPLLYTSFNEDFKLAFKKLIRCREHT

Set 1 — method: Spec-seq; molecule type: double-stranded DNA, one strand shown; matrix: in vitro; concentration: not given; setting: whole probe, mean of replicates; relative to: not given; reading: lower = stronger binding; constant ends, left off below: GAGTCGTCTCGTCAGCAC … CCGTAGAGCACTCAGGTC
Target: POU, POU domain (Salpingoeca helianthica)
Construct (chain): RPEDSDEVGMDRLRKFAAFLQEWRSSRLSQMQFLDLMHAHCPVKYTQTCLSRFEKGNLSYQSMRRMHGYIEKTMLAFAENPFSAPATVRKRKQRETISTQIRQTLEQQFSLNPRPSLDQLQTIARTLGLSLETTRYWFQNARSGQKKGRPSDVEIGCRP
Oligonucleotide | relative binding energy
ATTAGGAT | 0.738 ln ratio
ATTCTGAT | 0.948 ln ratio
ATGCGTCG | 1.57 ln ratio
ATGCATAG | 1.25 ln ratio
ACGTTAAT | -0.0749 ln ratio
AAATTAAT | -0.78 ln ratio
TGGCTAAT | 0.54 ln ratio
ATCCCCAT | 1.41 ln ratio

Set 2 — method: protein-binding microarray; molecule type: double-stranded DNA, one strand shown; matrix: in vitro; concentration: not given; reading: higher = stronger binding
Target: Max-binding protein MNT, bHLH-zipper, MAX partner unstated (MNT, Homo sapiens, UniProt Q99583, residues 220-300)
Setting: k-mer, scored over probes, only values ≥0.25
Residues (chain): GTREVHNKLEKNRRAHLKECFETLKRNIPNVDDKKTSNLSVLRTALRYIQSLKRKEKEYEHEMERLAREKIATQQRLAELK
Oligonucleotide | E-score
ACGGGGCG | 0.353
CCGCACCA | 0.262
ATGTCACG | 0.35
ACATGACA | 0.33
ACCTCCAT | 0.276
ATGCACAT | 0.365
ATGCTCCA | 0.286
CGTGGGAA | 0.389

Set 3 — cell line: mouse MPNST tumor cells; method: high-content nuclear imaging; measured: cell number; concentration: 10 µM; time: 12 h; setting: mean of 2 replicates; relative to: plate mean; reading: higher = more cells
SMILES | nuclei count [z-score]
CC(C)OC(=O)NC1CCN(Cc2cc(Cl)c3cccnc3c2O)CC1 | -4.65
CC(C)NCC(O)COc1ccc(CC(N)=O)cc1 (centres unmarked) | 3.21
Cc1cc(-c2nncc3c(C(C)(C)C)c(OCc4ncnn4C)nn23)no1 | 0.0418

Further values, each from its own experiment
Substance | target or system | assay | test system | conditions | how to read | quantity | result
N=C(N/N=C/c1ccc(Cl)cc1)N/N=C/c1ccc(Cl)cc1 | A-375 | – | – | 100 µM, 36 h | – | viability | 2.74%
AAAAAAAA (biotin) | Double-stranded RNA-specific adenosine deaminase, dsRBD 2 (ADAR, Homo sapiens, UniProt P55265, residues 595-700) | protein domain microarray | RNA, in vitro | not given, poly(A) 8-mer RNA, whole probe, immobilized GST-fusion domains, most near background | relative to: GST loading signal, higher = stronger binding | signal ratio | 0.0471
c1ccc(CC2=NCCN2)cc1 | A-375 | – | – | 100 µM, 36 h | – | viability | 112%
CN(C)[C@@H]1CCN(c2cc(-c3ccccc3)nc3ccnn23)C1 | 5-hydroxytryptamine receptor 1E (HTR1E, Homo sapiens, UniProt P28566) | cell-free assay | – | 10 µM | – | inhibition | 7.26%
